Measured values pooled from the literature.
Protocols differ between the studies behind these lines. ± gives the spread as reported.

COc1ccc2nc([S@@+]([O-])Cc3ncc(C)c(OC)c3C)[nH]c2c1  Cmax (human male, dried plasma spots; oral, 5 mg racemic omeprazole, together with: fluvoxamine and voriconazole): 446 nM
CCN(CC)Cc1cc(Nc2ccnc3cc(Cl)ccc23)ccc1O  Cmax (human, both sexes, plasma; oral, dose not given, non-fixed combination): 68.4 ng/mL
Cc1noc(C)c1-c1cc(C(O)(c2ccccn2)c2ccccn2)c2nc(C3CC3)[nH]c2c1  Cmax (human male patients, fasted, plasma; oral, 3 mg once daily, cycle 1 day 8): 264 ng/mL
CCCCOc1nc(N)c2c(n1)N(Cc1cccc(CN3CCCC3)c1)CC(=O)N2  Cmax (human HIV patients on ART; oral, 2 mg, mean): 1.13 ng/mL
O=C(O)CCCCCCCCCCCCC(=O)O  Cmax (human, plasma; concentration not given, endogenous baseline diurnal): 146 ± 29 nM
O=C(O)C[C@H](O)C[C@H](O)/C=C/c1c(C2CC2)nc2ccccc2c1-c1ccc(F)cc1  Cmax (OATP1B1/1B3 humanized mouse, plasma; oral, 5 mg/kg, together with: silymarin 500 mg/kg oral): 579 nM
Cc1cn(C(=O)c2c(-c3c(Cl)cc(Cl)cc3Cl)noc2C(C)(C)F)c2cccc(/C=C/C(=O)O)c12  Cmax (human patients; 1000 mg bid, cycle 8 day 1): 38300 ng/mL
Cc1nc(-c2ccc(OCC(C)C)c(C#N)c2)sc1C(=O)O  Cmax (human, plasma; oral, 20 mg once daily, together with: verinurad 2.5 mg): 552 ng/mL
CCS(=O)(=O)Nc1ccc(Oc2ccc(F)cc2F)c(-c2cn(C)c(=O)c3[nH]ccc23)c1  Cmax (human, plasma; oral, 1.5 mg, cycle 1 day 8, geometric mean): 18.5 ng/mL
Cc1cc(-c2nnc(N)nc2-c2ccc(F)cc2)cc(Cl)n1  Cmax (human patients, plasma; oral, 100 mg nanosuspension once daily, multiple doses, arithmetic mean): 703 ng/mL
O=C(O)CCCCCCCCC(=O)O  Cmax (human, plasma; concentration not given, endogenous control diurnal): 41.4 ± 3.6 nM
CCO  Cmax (human, breath; 0.5 g/kg, together with: 10 mg co-dosed drug): 65.9 ± 10.9 mg/100 mL
CC(=O)O.NC(=O)c1cnc(N[C@@H]2CCCC[C@@H]2N)nc1Nc1cccc(-n2nccn2)c1  Cmax (human, plasma; oral, 11 mg once daily): 16.1 ng/mL
CN(C)C(=O)c1cc2cnc(Nc3ccc(N4CCNCC4)cn3)nc2n1C1CCCC1  Cmax (human, moderate renal impairment, plasma; oral, 400 mg, geometric mean): 419 ng/mL
C[C@H]1CN(C(=O)CC#N)[C@]12CCN(c1ncnc3[nH]ccc13)C2  Cmax (healthy human, plasma; oral, 6 mg single, day 1, geometric mean): 51 ng/mL
O=C(Nc1cnccc1Cl)N1CCN(Cc2ccc3c(c2)OC(F)(F)O3)CC1  Cmax (human healthy young men, plasma; oral, 25 mg once daily, day 10, multiple dose mean): 225 ng/mL
CCOc1c([C@H](C)n2nc(C)c3c(N)ncnc32)cc(Cl)c(F)c1[C@@H]1CNC(=O)C1  Cmax (human, DLBCL, plasma; oral, 20 mg, day 15, geometric mean): 1960 nM
C=CC(=O)NC1CCN(c2ncc3ncnc(Nc4ccc(Oc5ccc6c(c5)ncn6C)c(C)c4)c3n2)CC1  Cmax (human, male, plasma; oral, 240 mg single dose, fed, geometric mean): 4670 nM
Nc1ccc(-c2nc([C@H]3CCc4cc(-c5cc(Cl)ccc5-n5cnnn5)cc(=O)n43)c(F)[nH]2)c(F)n1  Cmax (human, plasma; oral, 80 mg once daily, day 14): 1040 ng/mL
CNC(=O)c1ccccc1Sc1ccc2c(/C=C/c3ccccn3)n[nH]c2c1  Cmax (human, normal hepatic function (NCI), plasma; single dose, geometric mean, total drug): 24.6 ng/mL
CC(C)NC(=O)COc1cccc(-c2nc(Nc3ccc4[nH]ncc4c3)c3ccccc3n2)c1  Cmax (human male, plasma; oral, 200 mg, day 6, fed, alone, geometric mean): 2080 ng/mL
C[C@H](CCC(=O)NCCS(=O)(=O)O)[C@H]1CC[C@H]2[C@@H]3CC[C@@H]4C[C@H](OS(=O)(=O)O)CC[C@]4(C)[C@H]3CC[C@]12C  Cmax (human, plasma; concentration not given, endogenous baseline diurnal): 219 ± 51 nM
N[C@@H]1c2cccnc2[C@H](OC(=O)N2CCC(n3c(=O)[nH]c4ncccc43)CC2)CC[C@H]1c1cccc(F)c1F  Cmax (human, plasma; oral, 75 mg, single dose alone, mean): 948 ng/mL
CCn1cc(C(=O)N2CCOCC2)c(=O)c2cc(NC3Cc4ccccc4C3)cnc21  Cmax (human overall, fed, plasma; oral, 900 mg twice daily, day 7, tablet, arithmetic mean): 6800 ng/mL
COc1ccc([C@@H](O)c2cc(-c3ncnc4cc(N5CCOCC5)ccc34)c(F)cc2Cl)nn1  Cmax (human, plasma; oral, 250 mg twice daily, single dose, geometric mean): 2340 ng/mL
CCNCCCNC/C=C\CNCCCNCC  Cmax (LC-MS/MS; human cancer patients, plasma; intravenous infusion 60 min, 100 mg, median, cycle 1): 396 ng/mL
Cc1cc(Nc2cc3ncccc3c(N[C@@H]3C[C@H]4CC[C@@H](C3)N4CCC#N)n2)n[nH]1  Cmax (human, plasma; 30 mg single dose, mean): 1.03 ng/mL
CC#CC(=O)N1CCC[C@H]1c1nc(-c2ccc(C(=O)Nc3ccccn3)cc2)c2c(N)nccn12  Cmax (human, plasma; oral, 400 mg single dose): 1940 ng/mL
Cc1cc(-c2nccc3c2ccn3CC(=O)Nc2ccc(-c3cnccn3)cn2)ccn1  Cmax (human, plasma; oral, 7 mg single dose, total): 57 nM
COc1ccc([C@@H](O)c2cc(-c3ncnc4cc(N5CCOCC5)ccc34)c(F)cc2Cl)nn1  Cmax (healthy human volunteers, plasma; oral, 100 mg single dose, tablet, fed high-fat, geometric mean): 279 ng/mL
CC(C)(C)[C@@H]1NC(=O)O[C@@H]2CCC[C@H]2OC/C=C/C(F)(F)c2nc3ccccc3nc2O[C@@H]2C[C@@H](C(=O)N[C@]3(C(=O)NS(=O)(=O)C4(C)CC4)C[C@H]3C(F)F)N(C2)C1=O  Cmax (healthy human subjects, plasma; oral, dose not given, single dose alone): 1130 ng/mL
COc1cc(Nc2c(C#N)cnc3cc(OCCCN4CCN(C)CC4)c(OC)cc23)c(Cl)cc1Cl  Cmax (human severe hepatic impairment, plasma; concentration not given, single dose geometric mean): 49 ng/mL
O=C(O)CCCCCCCCCCCCCCCCC(=O)O  Cmax (human, plasma; concentration not given, endogenous control diurnal): 113 ± 13 nM
N[C@@H](CC(=O)N1CCn2c(nnc2C(F)(F)F)C1)Cc1cc(F)c(F)cc1F  Cmax (male human, plasma; oral, 100 mg single dose): 464 ± 124 ng/mL
C#C[C@]1(CO)O[C@@H](n2cnc3c(N)nc(F)nc32)C[C@@H]1O  Cmax (human, plasma; oral, 30 mg, single dose, geometric mean): 1050 nM
NCCCS(=O)(=O)O  Cmax (human, plasma; oral, 256.5 mg once daily, day 14, capsule, fasted, dosed days 8-14): 1040 ng/mL
Nc1ncn([C@@H]2O[C@H](CO)[C@@H](O)[C@H]2O)c(=O)n1  Cmax (human; intravenous, 100 mg/m^2, cycle 1 day 1, given alone): 1800 ng/mL
Cc1ccc([C@@H]2O[C@H](CO)[C@@H](O)[C@H](O)[C@H]2O)cc1Cc1ccc(-c2ccc(F)cc2)s1  Cmax (human, maintenance hemodialysis patients; oral, 300 mg once daily, steady state, mean): 2580 ng/mL
C=CC(=O)N1CCC[C@@H](n2c(=O)n(-c3ccc(Oc4ccccc4)cc3)c3c(N)nccc32)C1  Cmax (human, fed, plasma; oral, 120 mg, geometric mean): 27.8 ng/mL
CN(CC#N)C(=O)C[C@H](Nc1nc2ccccc2[nH]1)c1cccc(C(F)(F)F)c1  Cmax (human; intravenous infusion, 2 mg/kg, 1 mg/mL formulation): 4640 ± 106 ng/mL
NC(=O)c1[nH]cnc1N  Cmax (human patients, plasma; IV infusion over 1 h, 1000 mg/m^2 DTIC, cycle 1 day 1, DTIC alone): 4460 ng/mL
CC1(COc2ccc3c(c2)ncn3-c2ccc3cccc(N4CCC(N)CC4)c3n2)COC1  Cmax (human patients, recurrent/progressive HGG or DIPG, serum; oral, 130 mg/m^2, day 28, median): 658 nM
CO[C@H]1C[C@@H]2CC[C@@H](C)[C@@](O)(O2)C(=O)C(=O)N2CCCC[C@H]2C(=O)O[C@H]([C@H](C)C[C@@H]2CC[C@@H](OC(=O)NCCOCCOCCOCCOCCOCCOCCOCCOCCC(=O)N3CCc4cc(Cn5nc(-c6ccc7oc(N)nc7c6)c6c(N)ncnc65)ccc4C3)[C@H](OC)C2)C[C@@H](O)[C@H](C)/C=C(\C)[C@@H](O)[C@@H](OC)C(=O)[C@H](C)C[C@H](C)/C=C/C=C/C=C/1C  Cmax (human patients, plasma; intravenous, 10 mg, cycle 1 day 1, 2 h infusion): 205 ng/mL
Nc1ccn([C@@H]2O[C@H](CO)[C@@H](O)C2(F)F)c(=O)n1  Cmax (HPLC-UV; human, plasma; intravenous, 800 mg/m^2, mean, before paricalcitol): 17700 ng/mL
C[C@H](O)c1cc(C(=O)N[C@@H](C)Cn2ccc(-c3ccc(C#N)c(Cl)c3)n2)n[nH]1  Cmax (human, fasted, plasma; oral, 300 mg 14C-darolutamide solution, geometric mean): 2490 ng/mL
Cc1cc(Nc2ccc(S(F)(F)(F)(F)F)cc2)n2nc(C(C)(F)F)nc2n1  Cmax (LC-MS/MS; human vivax malaria patients, plasma; oral, 400 mg, mean): 7880 ng/mL
C=CC(=O)N(C)CCOc1c(N)ncnc1-c1cc(F)cc(NC(=O)c2ccc(C3CC3)cc2F)c1C  Cmax (human, whole blood; oral, 600 mg, single ascending dose, fasted): 511 ng/mL
CCN1CCN(Cc2ccc(Nc3ncc(F)c(-c4cc(F)c5nc6n(c5c4)[C@H](C)CCC6)n3)nc2)CC1  Cmax (human, plasma; 300 mg multiple dosing, mean): 361 ng/mL
CN(C)CCCNC(=O)/C(=C/CCCCC(=O)NO)COc1cccc2ccccc12  Cmax (human, plasma; intravenous, 250 mg/m2, first day single dose): 8060 ng/mL
NC1(C(=O)N[C@@H](CCO)c2ccc(Cl)cc2)CCN(c2nc[nH]c3nccc2-3)CC1  Cmax (human patients, plasma; dose not given, cohort 160/320, cycle 0, geometric mean): 530 ng/mL
N#CCC1CCN(c2nc(Nc3ccc(N4CCC(O)CC4)cc3)c3c(=O)[nH]ncc3n2)CC1  Cmax (human, plasma; oral, 40 mg once daily, day 1): 136 ng/mL
C#C[C@]1(O)CC[C@H]2[C@@H]3CCc4cc(O)ccc4[C@H]3CC[C@@]21C  Cmax (human female, plasma; single dose oral contraceptive, together with: ritlecitinib 50 mg once daily multiple doses): 62.2 ng/mL
NC(=S)NN=Cc1ncccc1N  Cmax (human, plasma; oral, 150 mg): 344 ng/mL
O=C1CC[C@H](N2Cc3cc(N4CCN(CC5CCN(c6ccc([C@@H]7c8ccc(O)cc8CC[C@@H]7c7ccccc7)cc6)CC5)CC4)ccc3C2=O)C(=O)N1  Cmax (human, plasma; oral, 200 mg, together with: dabigatran etexilate 75 mg): 477 ng/mL
Cc1cc(C)c(CNC(=O)c2cc(Cl)c3c(c2C)O[C@@](C)([C@H]2CC[C@H](N(C)C)CC2)O3)c(=O)[nH]1  Cmax (mean; healthy male humans, plasma; oral, 25 mg, day 12, together with: fluconazole): 158 ng/mL
CC(C)(Sc1ccncc1-c1ccc(C#N)c2ccccc12)C(=O)O  Cmax (human, plasma; oral, 15 mg once daily, together with: febuxostat 0 mg): 52.7 ng/mL
N#C[C@H](C[C@@H]1CCCNC1=O)NC(=O)[C@H](CC1CC1)NC(=O)c1cc2cccc(Cl)c2[nH]1  Cmax (human, plasma; 700 mg twice daily, day 1): 3650 ng/mL
CC1(C)CC[C@]2(NC(=O)C(C)(F)F)CC[C@]3(C)[C@H](C(=O)C=C4[C@@]5(C)C=C(C#N)C(=O)C(C)(C)[C@@H]5CC[C@]43C)[C@@H]2C1  Cmax (human, plasma; oral, 150 mg, single dose alone, geometric mean): 43 ng/mL
Cn1ncnc1[C@H]1c2n[nH]c(=O)c3cc(F)cc(c23)N[C@@H]1c1ccc(F)cc1  Cmax (human patients, plasma; oral, 600 µg/m2 twice daily day 1, day 5, dose level DL6, median, together with: temozolomide 55 mg/m2 daily days 2-6): 19.1 ng/mL
CCCn1cc(C)c2c(=O)[nH]c(-c3cc(S(=O)(=O)N4CCN(CC)CC4)ccc3OCC)nc21  Cmax (human, plasma; oral, 100 mg): 64.8 ± 32.8 ng/mL

Some of these lines once more:
C=CC(=O)N1CCC[C@@H](n2c(=O)n(-c3ccc(Oc4ccccc4)cc3)c3c(N)nccc32)C1  Cmax (human, fed, plasma; oral, 120 mg, geometric mean): 27.8 ng/mL
CC1(C)CC[C@]2(NC(=O)C(C)(F)F)CC[C@]3(C)[C@H](C(=O)C=C4[C@@]5(C)C=C(C#N)C(=O)C(C)(C)[C@@H]5CC[C@]43C)[C@@H]2C1  Cmax (human, plasma; oral, 150 mg, single dose alone, geometric mean): 43 ng/mL
Cc1cc(-c2nccc3c2ccn3CC(=O)Nc2ccc(-c3cnccn3)cn2)ccn1  Cmax (human, plasma; oral, 7 mg single dose, total): 57 nM
COc1ccc([C@@H](O)c2cc(-c3ncnc4cc(N5CCOCC5)ccc34)c(F)cc2Cl)nn1  Cmax (human, plasma; oral, 250 mg twice daily, single dose, geometric mean): 2340 ng/mL
Cc1ccc([C@@H]2O[C@H](CO)[C@@H](O)[C@H](O)[C@H]2O)cc1Cc1ccc(-c2ccc(F)cc2)s1  Cmax (human, maintenance hemodialysis patients; oral, 300 mg once daily, steady state, mean): 2580 ng/mL
Cc1cc(-c2nnc(N)nc2-c2ccc(F)cc2)cc(Cl)n1  Cmax (human patients, plasma; oral, 100 mg nanosuspension once daily, multiple doses, arithmetic mean): 703 ng/mL
CC1(COc2ccc3c(c2)ncn3-c2ccc3cccc(N4CCC(N)CC4)c3n2)COC1  Cmax (human patients, recurrent/progressive HGG or DIPG, serum; oral, 130 mg/m^2, day 28, median): 658 nM
NC(=O)c1[nH]cnc1N  Cmax (human patients, plasma; IV infusion over 1 h, 1000 mg/m^2 DTIC, cycle 1 day 1, DTIC alone): 4460 ng/mL
